Results from different studies.
Every numbered part comes from another study and shows a few of its results, in no order. Changes are numbered by the printed parent chain.

Block 1
Target: ABI1, truncated, D143A, DHFR fusion (Arabidopsis thaliana)
Technique: DHFR PCA, deep sequencing
Medium: yeast
Notes: methotrexate growth selection, single substitutions
Added: (+)-ABA 2500 µM
Relative to: wild-type fitted maximum
Direction: higher = stronger binding
Starting sequence: PYL1, truncated, DHFR fusion (Arabidopsis thaliana); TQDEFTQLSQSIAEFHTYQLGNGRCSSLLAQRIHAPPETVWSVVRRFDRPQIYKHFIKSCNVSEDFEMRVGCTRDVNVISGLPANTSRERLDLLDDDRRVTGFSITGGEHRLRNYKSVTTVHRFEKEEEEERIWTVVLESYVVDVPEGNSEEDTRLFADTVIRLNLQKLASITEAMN
Change	relative binding score
S104F	80.5%
E4M	97.1%
S150H	92.1%
T17F	90.2%
S42Y	86.5%
F124T	98.5%
L138F	109%
F47G	7.75%

Block 2
Target: CREB5, bZIP domain (human)
Technique: DHFR protein complementation
Medium: yeast
Notes: single substitutions, most at no-binding floor
Relative to: wild-type JUN-FOS pair
Direction: higher = stronger binding
Starting sequence: JUN, bZIP domain (human); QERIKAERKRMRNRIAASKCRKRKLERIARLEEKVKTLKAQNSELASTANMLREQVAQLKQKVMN; partner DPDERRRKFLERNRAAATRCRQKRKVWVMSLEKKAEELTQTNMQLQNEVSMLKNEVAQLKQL
Change	binding fitness [natural log]
K36P	-1.35
L38I	-1.07
E33G	-0.651
I28G	-0.426
K36M	-0.173
L31W	-0.891
E33F	-0.588
L45H	-1.41

Block 3
Target: RING finger protein unkempt homolog, zinc fingers 1-6, GST-SBP tag (UNK, Homo sapiens, UniProt Q9C0B0, residues 30-357)
Chain of UniProt Q9C0B0 (30-357, looked up): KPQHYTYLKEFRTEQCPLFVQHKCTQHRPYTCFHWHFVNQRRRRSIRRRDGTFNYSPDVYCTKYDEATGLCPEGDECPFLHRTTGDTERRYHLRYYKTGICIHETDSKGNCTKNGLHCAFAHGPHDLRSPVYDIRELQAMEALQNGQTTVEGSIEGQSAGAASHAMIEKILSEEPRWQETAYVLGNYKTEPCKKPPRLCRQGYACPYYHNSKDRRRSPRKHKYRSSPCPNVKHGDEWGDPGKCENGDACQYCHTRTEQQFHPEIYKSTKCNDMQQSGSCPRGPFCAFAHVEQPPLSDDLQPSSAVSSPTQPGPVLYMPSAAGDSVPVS
Technique: RNA Bind-n-Seq
Molecule type: RNA
Medium: in vitro
Concentration: not given
Notes: RNA with constant flanks, ends assumed
Relative to: input RNA pool
Direction: higher = stronger binding
Constant ends, left off below: GGGAGUUCUACAGUCCGACGAUC … CAACAGAGGAUUGAGCAUCA
Oligonucleotide	bound/input enrichment [ratio]
CCGCUUUUUGCCGCGAGCCGACCGGUCCCGUCAUGCCGACCCGCAGUCCCAGCGUCGUGAUCCGCGAUGAUGAACCAGGUUAUGACCUAGAUUUGUUUUGUAUACCUAAUCAUUAUGCCG	0.424
CUAAAGAUAAGCAAUUUAAAGAAAAUUUUAAAAGGAAUCUUGGAUUAUAAUCAUGAGAUUUCCGGACAGCAAAUUAAUGACUUUACCCUUCCUGAUGUGAACCUUAUUGGGGAGCAUUCU	0.404
UUAAGGGAAAUUUUUGAGGCAAAAGGCAAAUGUUUUGGUUCAAACCUAUGAGCAAAGUCAUUCCGAGAAUUGAAGAUAGUAUUAAAACCUUGAGACUCUUGCAAUAAAAAUAUCAGACCA	0.322
CGAGCUGGAUCCAGAGUUGCAUACAGACCAAUUUCUGCAUCAGUGUUAUCUCGACCAGAGGCCCGCCGGACUGGAGAGGGCUCUACGGUAUUUAAUGGGGCCCAGAAUGGUGUGUCUCAG	0.115
UCUCUGUUCAGCCGUUAAUGCUGGGAUCCAUAUUUAGUUUUAUAAGCUUUUCCCUGUUUUCCGUUUCGUUUGGGUUUUUUUGGCUCAUGGAUUUUAUUUUCUGUUUGUCGAUAAGAAAUG	17.9
CCUGAACUUUUAGCUUUCAAGUUGUGGCUGUUUUUUGUUUUUGUUUUUGUUUUUGUUUUCUUCCGAAUUUUUCCCUGUUUCCCACCUUCUCUUCCCCUGUUGCCAAGGUCUAACUCAUGG	1.08
GCAGAUUAUAAUGGCAGACUGGCGGCAGAAAUAGAUGAUAGAAAGCAACUCACCCGAAUGUCCGCAGAUUUUCUUCGUUGUCAAAAGGAAGCCCUUGCAGAGAAAGAACAUAAAUUGGAA	0.788
GCCAUCUGGGGUGUGGUGUGGUAUGUGGGAAGAAGUUCAGAGGAACCGUUGGAAACGACGUCCGGCAUUUUACCUUUUCAGUAACAUUUUAUACAUCUACUUGUCAAUGUAUUUGAGACA	0.284

Single results of other studies
SMILES	cell line	conditions	measurement	value
CCN(CC)C(=S)SSC(=S)N(CC)CC	A-375	100 µM, 36 h	viability	-0.461%

Some of these lines once more (block 2):
Change	binding fitness [natural log]
K36M	-0.173
E33F	-0.588
